Results of several laboratories.
Compare with care: the assays were run in different laboratories. Numbers after ± are the reported error.
PPARG ligand-binding domain: Peroxisome proliferator-activated receptor gamma, ligand-binding domain (PPARG, Homo sapiens, UniProt P37231)
Chain of UniProt P37231 (whole entry, looked up): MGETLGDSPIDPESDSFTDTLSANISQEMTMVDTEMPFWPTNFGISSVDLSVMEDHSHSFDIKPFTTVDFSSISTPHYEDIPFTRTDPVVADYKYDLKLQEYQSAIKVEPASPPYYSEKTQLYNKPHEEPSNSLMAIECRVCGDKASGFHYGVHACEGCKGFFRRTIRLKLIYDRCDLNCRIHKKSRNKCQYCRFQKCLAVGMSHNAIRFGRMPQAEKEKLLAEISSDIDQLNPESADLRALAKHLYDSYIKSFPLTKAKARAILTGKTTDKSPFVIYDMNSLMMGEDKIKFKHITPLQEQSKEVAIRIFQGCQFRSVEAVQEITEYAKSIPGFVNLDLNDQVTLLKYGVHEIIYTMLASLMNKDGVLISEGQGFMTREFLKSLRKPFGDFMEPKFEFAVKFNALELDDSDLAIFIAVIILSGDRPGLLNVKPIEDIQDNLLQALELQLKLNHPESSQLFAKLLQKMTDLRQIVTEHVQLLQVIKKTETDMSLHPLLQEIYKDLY
Rhomboid protease AarA: Rhomboid protease AarA (Providencia stuartii, UniProt P46116)
Chain of UniProt P46116 (whole entry, looked up): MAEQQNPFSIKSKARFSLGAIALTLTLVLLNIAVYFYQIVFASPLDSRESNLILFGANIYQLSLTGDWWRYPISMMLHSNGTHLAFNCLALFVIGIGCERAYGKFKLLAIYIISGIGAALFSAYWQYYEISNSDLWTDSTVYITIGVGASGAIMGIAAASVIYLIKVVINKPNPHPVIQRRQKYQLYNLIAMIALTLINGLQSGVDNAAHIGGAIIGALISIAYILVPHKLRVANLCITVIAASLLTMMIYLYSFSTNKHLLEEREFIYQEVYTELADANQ
PPARG: Peroxisome proliferator-activated receptor gamma (PPARG, Homo sapiens, UniProt P37231)
Chain of UniProt P00760 (whole entry, looked up): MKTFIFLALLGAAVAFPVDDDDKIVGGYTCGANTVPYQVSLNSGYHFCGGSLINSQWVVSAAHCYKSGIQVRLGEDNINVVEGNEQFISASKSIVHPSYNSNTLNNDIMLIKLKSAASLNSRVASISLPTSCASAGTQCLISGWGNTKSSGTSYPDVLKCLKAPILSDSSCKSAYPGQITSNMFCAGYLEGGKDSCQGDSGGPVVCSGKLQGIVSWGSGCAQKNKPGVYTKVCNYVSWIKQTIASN
Chain of UniProt P08173 (whole entry, looked up): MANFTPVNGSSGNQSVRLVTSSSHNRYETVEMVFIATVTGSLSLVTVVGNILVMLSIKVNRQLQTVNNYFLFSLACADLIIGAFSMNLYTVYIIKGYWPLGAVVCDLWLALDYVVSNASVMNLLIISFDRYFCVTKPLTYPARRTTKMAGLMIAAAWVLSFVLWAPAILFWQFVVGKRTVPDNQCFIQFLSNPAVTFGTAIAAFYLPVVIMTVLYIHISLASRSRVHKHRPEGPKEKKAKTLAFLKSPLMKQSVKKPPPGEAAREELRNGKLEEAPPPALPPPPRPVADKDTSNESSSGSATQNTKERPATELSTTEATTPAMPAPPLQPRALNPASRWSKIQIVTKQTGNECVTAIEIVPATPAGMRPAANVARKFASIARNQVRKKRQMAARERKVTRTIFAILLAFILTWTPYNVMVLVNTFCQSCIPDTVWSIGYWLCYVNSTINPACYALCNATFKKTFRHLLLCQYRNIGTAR
Chain of UniProt Q13547 (whole entry, looked up): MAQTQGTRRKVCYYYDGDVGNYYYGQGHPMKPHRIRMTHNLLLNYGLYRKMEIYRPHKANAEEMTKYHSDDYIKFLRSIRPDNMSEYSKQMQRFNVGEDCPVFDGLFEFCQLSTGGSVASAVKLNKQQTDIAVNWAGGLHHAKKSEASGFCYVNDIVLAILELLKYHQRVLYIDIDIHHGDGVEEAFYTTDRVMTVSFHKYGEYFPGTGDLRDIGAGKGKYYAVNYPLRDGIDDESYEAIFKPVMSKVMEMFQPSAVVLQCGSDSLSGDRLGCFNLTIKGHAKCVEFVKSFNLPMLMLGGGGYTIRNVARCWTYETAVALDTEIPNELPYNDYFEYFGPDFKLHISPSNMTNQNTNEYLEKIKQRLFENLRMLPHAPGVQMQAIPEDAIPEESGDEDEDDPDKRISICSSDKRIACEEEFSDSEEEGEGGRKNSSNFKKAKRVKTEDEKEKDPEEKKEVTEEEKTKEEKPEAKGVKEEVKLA
Chain of UniProt P00784 (whole entry, looked up): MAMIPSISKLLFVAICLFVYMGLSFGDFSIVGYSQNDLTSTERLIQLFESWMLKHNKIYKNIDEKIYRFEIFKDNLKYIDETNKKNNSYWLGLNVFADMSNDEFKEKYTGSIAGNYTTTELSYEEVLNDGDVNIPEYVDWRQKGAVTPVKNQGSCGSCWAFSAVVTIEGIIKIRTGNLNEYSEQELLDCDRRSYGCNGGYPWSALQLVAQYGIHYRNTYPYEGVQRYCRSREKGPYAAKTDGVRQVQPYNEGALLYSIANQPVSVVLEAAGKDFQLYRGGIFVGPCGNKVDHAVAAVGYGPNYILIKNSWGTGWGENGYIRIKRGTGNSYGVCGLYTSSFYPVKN
Chain of UniProt P10721 (whole entry, unmodified, looked up): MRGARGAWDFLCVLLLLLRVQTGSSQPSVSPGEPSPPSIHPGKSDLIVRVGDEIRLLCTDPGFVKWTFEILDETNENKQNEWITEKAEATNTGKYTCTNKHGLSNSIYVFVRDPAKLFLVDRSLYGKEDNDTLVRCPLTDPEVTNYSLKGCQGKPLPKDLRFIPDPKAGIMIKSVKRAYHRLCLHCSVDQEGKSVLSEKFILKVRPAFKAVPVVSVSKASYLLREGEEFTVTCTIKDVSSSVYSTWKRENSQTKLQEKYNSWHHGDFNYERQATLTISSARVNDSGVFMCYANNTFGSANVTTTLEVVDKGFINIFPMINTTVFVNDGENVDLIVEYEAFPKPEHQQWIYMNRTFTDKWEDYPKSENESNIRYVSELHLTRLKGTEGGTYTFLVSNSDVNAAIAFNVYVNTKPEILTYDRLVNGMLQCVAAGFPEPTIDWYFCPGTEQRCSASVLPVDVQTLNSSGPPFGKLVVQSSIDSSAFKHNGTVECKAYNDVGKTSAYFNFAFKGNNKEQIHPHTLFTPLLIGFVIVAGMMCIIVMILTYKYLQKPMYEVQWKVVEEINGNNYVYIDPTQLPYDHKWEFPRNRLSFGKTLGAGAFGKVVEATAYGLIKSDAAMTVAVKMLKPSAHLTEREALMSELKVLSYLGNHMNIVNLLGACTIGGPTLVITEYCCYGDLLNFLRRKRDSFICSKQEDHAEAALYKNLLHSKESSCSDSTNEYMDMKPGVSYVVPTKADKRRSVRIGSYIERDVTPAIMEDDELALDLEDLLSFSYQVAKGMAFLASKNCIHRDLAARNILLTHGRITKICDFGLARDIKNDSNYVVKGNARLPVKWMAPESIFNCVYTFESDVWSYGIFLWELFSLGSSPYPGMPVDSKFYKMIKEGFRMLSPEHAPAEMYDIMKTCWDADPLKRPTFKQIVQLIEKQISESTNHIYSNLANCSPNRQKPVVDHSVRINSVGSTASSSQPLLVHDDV
Chain of UniProt O75795 (whole entry, looked up): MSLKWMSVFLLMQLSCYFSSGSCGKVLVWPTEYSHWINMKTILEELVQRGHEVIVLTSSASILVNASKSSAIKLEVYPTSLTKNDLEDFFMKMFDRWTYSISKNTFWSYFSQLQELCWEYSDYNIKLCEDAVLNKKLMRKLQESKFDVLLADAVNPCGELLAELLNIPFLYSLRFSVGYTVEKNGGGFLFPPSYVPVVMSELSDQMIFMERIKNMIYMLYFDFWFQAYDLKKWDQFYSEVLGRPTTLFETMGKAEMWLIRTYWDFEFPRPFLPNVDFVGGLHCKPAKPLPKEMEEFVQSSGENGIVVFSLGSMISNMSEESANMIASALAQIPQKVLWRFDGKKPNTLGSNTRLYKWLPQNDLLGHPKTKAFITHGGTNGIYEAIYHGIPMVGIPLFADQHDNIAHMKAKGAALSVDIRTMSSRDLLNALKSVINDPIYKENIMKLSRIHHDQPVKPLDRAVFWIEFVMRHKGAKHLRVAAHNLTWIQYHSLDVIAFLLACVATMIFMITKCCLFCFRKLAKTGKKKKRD
Chain of UniProt P43358 (whole entry, looked up): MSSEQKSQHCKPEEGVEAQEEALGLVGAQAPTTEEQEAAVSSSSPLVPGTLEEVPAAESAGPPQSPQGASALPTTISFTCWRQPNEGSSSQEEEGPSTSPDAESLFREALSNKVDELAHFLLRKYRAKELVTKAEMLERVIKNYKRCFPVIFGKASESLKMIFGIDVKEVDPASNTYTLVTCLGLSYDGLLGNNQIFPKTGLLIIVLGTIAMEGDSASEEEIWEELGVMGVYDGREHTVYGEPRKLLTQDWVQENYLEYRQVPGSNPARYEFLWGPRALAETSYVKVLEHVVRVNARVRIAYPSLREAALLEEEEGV

SMILES	target	test	system	setting	IC50
Cc1c(Cc2ccc(Cl)c(OCC(=O)O)c2)c2ccc(C(=O)NCc3ccc(C(C)(C)C)cc3)cc2n1CC(C)C	PPARG ligand-binding domain	reporter gene, luciferase reporter	HEK293T, Gal4-PPARγ LBD	–	24.4 µM
CCCC(=O)OC1CCC2(C)C(CCC3(C)C2CC=C2C4C(C)C(C)CCC4(C(=O)O)CCC23C)C1(C)C (stereo not shown)	UGT2B17 (Homo sapiens, UniProt O75795)	enzyme activity, inhibitor	–	–	> 100 µM
O=C(NCCCN1CCCC1=O)c1ccccc1NC(=O)C(C(F)(F)F)C(F)(F)F	Rhomboid protease AarA	enzyme activity, inhibitor, fluorescence	–	–	19 µM
Cc1c(Cc2cccc(OC(C)(C)C(=O)O)c2)c2ccc(C(=O)N[C@@H](C)c3cccc(C(C)(C)C)c3)cc2n1CC1CC1	PPARG	ligand displacement, TR-FRET	–	–	0.017 µM
COC(=O)CCCCCNC(=O)Cc1ccc(Nc2ncc(F)c(-c3cc(F)c4nc(C)n(C(C)C)c4c3)n2)cc1	HDAC1 (Homo sapiens, UniProt Q13547)	enzyme activity, inhibitor	–	–	> 1 µM
Cc1c(Cc2ccc(OC(C)(C)C(=O)O)cc2)c2ccc(C(=O)N[C@@H](C)c3cccc(C(C)(C)C)c3)cc2n1C	PPARG ligand-binding domain	reporter gene, luciferase reporter	HEK293T, Gal4-PPARγ LBD	–	0.74 µM
O=C(NCc1cccc(-n2cccn2)c1)C(C(F)(F)F)C(F)(F)F	Rhomboid protease AarA	enzyme activity, inhibitor, fluorescence	–	–	11 µM
N#CN1CC[C@H](C(=O)Nc2ncc(N3CCOCC3)s2)C1	Papain (Carica papaya, UniProt P00784)	enzyme activity, inhibitor, fluorescence	–	–	10.7 µM
CC[C@H](C)[C@@H]1NC(=O)[C@H](Cc2ccc(O)cc2)NC(=O)CCSCc2cccc(c2)CSCCNC(=O)[C@H](Cc2c[nH]cn2)NC(=O)[C@H](Cc2ccc(O)cc2)NC(=O)[C@H](CC(=O)O)NC(=O)[C@H](Cc2ccc(F)c(F)c2)NC(=O)[C@H](CC(C)C)NC(=O)[C@H](CCCNC(=N)N)NC1=O	Melanoma-associated antigen 4, MAGE homology domain (Homo sapiens, UniProt P43358)	binding, inhibitor, TR-FRET displacement	–	with: Alexa647-MTP-1	0.0932 ± 0.0015 µM
CC(=O)NCCNC(=O)c1ccccc1NC(=O)C(C(F)(F)F)C(F)(F)F	Rhomboid protease AarA	enzyme activity, inhibitor, fluorescence	–	–	36 µM
CC(C)Cn1cc(Cc2cccc(OC(C)(C)C(=O)O)c2)c2ccc(C(=O)N[C@@H](C)c3cccc(C(C)(C)C)c3)c(F)c21	PPARG	ligand displacement, TR-FRET	–	–	0.085 µM
O=C(CCNC(=O)CNC(=O)CC(c1ccccc1)(c1ccccc1)c1ccccc1)NC[C@@H]1CCCN(Cc2ccc(F)cc2)C1	CHRM4 (Homo sapiens, UniProt P08173)	ligand displacement, radioligand	–	cell membranes	21.5 µM
Cc1c(Cc2ccc(OC(C)(C)C(=O)O)cc2)c2ccc(C(=O)N[C@@H](C)c3cccc(C4CC4)c3)cc2n1C	PPARG	ligand displacement, TR-FRET	–	–	0.003 µM
Cc1nc2ccc(Br)cc2c(=O)n1N	Serine protease 1 (PRSS1, Bos taurus, UniProt P00760)	enzyme activity, inhibitor	–	–	7.87 µM
COCc1cc2c(cn1)CN(C(=O)Nc1nc(-c3ccc(F)cc3)ccc1N)C2	Lysine-specific histone demethylase 1A, with CoREST (KDM1A, Homo sapiens, UniProt O60341)	demethylase activity, inhibitor	–	LSD1-CoREST complex	> 150 µM
Cc1nn(-c2cccc(N)c2)c(=O)c2cnc(Nc3ccc(N4CCNCC4)cc3)nc12	KIT (Homo sapiens, UniProt P10721, T670I)	enzyme activity, inhibitor	–	–	> 10 µM

Repeated from above:
SMILES	target	test	system	setting	IC50
O=C(NCc1cccc(-n2cccn2)c1)C(C(F)(F)F)C(F)(F)F	Rhomboid protease AarA	enzyme activity, inhibitor, fluorescence	–	–	11 µM
Cc1c(Cc2ccc(Cl)c(OCC(=O)O)c2)c2ccc(C(=O)NCc3ccc(C(C)(C)C)cc3)cc2n1CC(C)C	PPARG ligand-binding domain	reporter gene, luciferase reporter	HEK293T, Gal4-PPARγ LBD	–	24.4 µM
